Experimental data pooled from the literature.
± marks the error that the study gave.
Technique: steady-state kinetics
B1: ycjS (Escherichia coli, UniProt P77503); chain MKSAMTSSPLRVAIIGAGQVADKVHASYYCTRNDLELVAVCDSRLSQAQALAEKYGNASVWDDPQAMLLAVKPDVVSVCSPNRFHYEHTLMALEAGCHVMCEKPPAMTPEQAREMCDTARKLGKVLAYDFHHRFALDTQQLREQVTNGVLGEIYVTTARALRRCGVPGWGVFTNKELQGGGPLIDIGIHMLDAAMYVLGFPAVKSVNAHSFQKIGTQKSCGQFGEWDPATYSVEDSLFGTIEFHNGGILWLETSFALNIREQSIMNVSFCGDKAGATLFPAHIYTDNNGELMTLMQREIADDNRHLRSMEAFINHVQGKPVMIADAEQGYIIQQLVAALYQSAETGTRVEL
B2: enzyme (Brachypodium distachyon, UniProt I1HY48); chain MGSIASEERTVTGWAARDADGHLSPYTYTLRKTGPEDVLVKVLYCGICHTDIHQAKNHLGASKYPMVPGHEVVGEVVEVGGEVSKYSAGDVVGVGVIVGCCRECRPCKASVEQYCNKRIWSYNDVYTDGRPTQGGFSSAMVVDQKFVVRIPAGLAPEQAAPLLCAGVTVYSPLKHFGLMSPGLRGGILGLGGVGHMGVKVAKSMGHHVTVISSSGKKRAEAMDDLGADAYLVSSDADQMAAAADSLDYVIDTVPVKHPLEPYLSLLKMDGKLVLMGVIGEPLSFVSPMVMLGRKSITGSFIGSMEETEEVLKFCVEKGLTSQIEVVKMDYLNEALERLERNDVRYRFVVDVAGSKIEDAA
B3: enzyme K299V (Mus musculus, UniProt P08680); chain DRKSKIVQRAAPEVQEDVKTFKTDLLSTMDSTTRSHSFPSFQEPEQTEGAVPHLIQNNMTGSQAFGYDQFFRDKIMEKKQDHTYRVFKTVNRWANAYPFAQHFSEASMASKDVSVWCSNDYLGISRHPRVLQAIEETLKNHGAGAGGTRNISGTSKFHVELEQELAELHQKDSALLFSSCFVANDSTLFTLAKLLPGCEIYSDAGNHASMIQGIRNSGAAVFVFRHNDPGHLKKLLEKSDPKTPKIVAFETVHSMDGAICPLEELCDVAHQYGALTFVDEVHAVGLYGARGAGIGERDGIMHKLDIISGTLGKAFGCVGGYIASTRDLVDMVRSYAAGFIFTTSLPPMVLSGALESVRLLKGEEGQALRRAHQRNVKHMRQLLMDRGFPVIPCPSHIIPIRVGNAALNSKICDLLLSKHSIYVQAINYPTVPRGEELLRLAPSPHHSPQMMENFVEKLLLAWTEVGLPLQDVSVAACNFCHRPVHFELMSEWERSYFGNMGPQYVTTYA
B4: TcC (Trypanosoma cruzi, UniProt Q4DGA3); chain MPREYEFAEKILFTEEEIRTRIMEVAKRIADDYKGKGLRPYVNPLVLISVLKGSFMFTADLCRALSDFNVPVRMEFICVSSYGEGVTSSGQVRMLLDTRHSIEGHHVLIVEDIVDTALTLNYLYHMYFTRRPASLKTVVLLDKREGRRVPFSADYVVANIPNAFVIGYGLDYDDTYRELRDIVVLRPEVYAEREAARQKKQRAIGSADTDRDAKREFHSKY
B5: Paox H64Q (Mus musculus, UniProt Q8C0L6); chain MAFPGPRVLVVGSGIAGLGAAQKLCSHRAAPHLRVLEATASAGGRIRSERCFGGVVELGAHWIQGPSQDNPVFQLAAEFGLLGEKELSEENQLVDTGGHVALPSMIWSSSGTSVSLELMTEMARLFYGLIERTREFLNESETPMASVGEFLKKEISQQVASWTEDDEDTRKRKLAILNTFFNIECCVSGTHSMDLVALAPFGEYTVLPGLDCILAGGYQGLTDRILASLPKDTVAFDKPVKTIHWNGSFQEAAFPGETFPVLVECEDGARLPAHHVIVTVPLGFLKEHQDTFFEPPLPAKKAEAIKKLGFGTNNKIFLEFEEPFWEPDCQFIQVVWEDTSPLQDTALSLQDTWFKKLIGFLVQPSFESSHVLCGFIAGLESEFMETLSDEEVLLSLTQVLRRVTGNPQLPAAKSVRRSQWHSAPYTRGSYSYVAVGSTGDDLDLMAQPLPEDGTGTQLQVLFAGEATHRTFYSTTHGALLSGWREADRLVSLWDSQVEQSRPRL
B6: SUOX P168A (Homo sapiens, UniProt P51687); chain ESTHIYTKEEVSSHTSPETGIWVTLGSEVFDVTEFVDLHPGGPSKLMLAAGGPLEPFWALYAVHNQSHVRELLAQYKIGELNPEDKVAATVETSDPYADDPVRHPALKVNSQRPFNAEPPPELLTENYITPNPIFFTRNHLPVPNLDPDTYRLHVVGAPGGQSLSLSLDDLHNFPRYEITVTLQCAGNRRSEMTQVKEVKGLEWRTGAISTARWAGARLCDVLAQAGHQLCETEAHVCFEGLDSDPTGTAYGASIPLARAMDPEAEVLLAYEMNGQPLPRDHGFPVRVVVPGVVGARHVKWLGRVSVQPEESYSHWQRRDYKGFSPSVDWETVDFDSAPSIQELPVQSAITEPRDGETVESGEVTIKGYAWSGGGRAVIRVDVSLDGGLTWQVAKLDGEEQRPRKAWAWRLWQLKAPVPAGQKELNIVCKAVDDGYNVQPDTVAPIWNLRGVLSNAWHRVHVYVSP
B7: protein (Streptomyces coelicolor, UniProt P16544); chain MATQDSEVALVTGATSGIGLEIARRLGKEGLRVFVCARGEEGLRTTLKELREAGVEADGRTCDVRSVPEIEALVAAVVERYGPVDVLVNNAGRPGGGATAELADELWLDVVETNLTGVFRVTKQVLKAGGMLERGTGRIVNIASTGGKQGVVHAAPYSASKHGVVGFTKALGLELARTGITVNAVCPGFVETPMAASVREHYSDIWEVSTEEAFDRITARVPIGRYVQPSEVAEMVAYLIGPGAAAVTAQALNVCGGLGNY
B8: SULT1A1 I89A (Homo sapiens, UniProt P50225); chain MELIQDTSRPPLEYVKGVPLIKYFAEALGPLQSFQARPDDLLISTYPKSGTTWVSQILDMIYQGGDLEKCHRAPIFMRVPFLEFKAPGAPSGMETLKDTPAPRLLKTHLPLALLPQTLLDQKVKVVYVARNAKDVAVSYYHFYHMAKVHPEPGTWDSFLEKFMVGEVSYGSWYQHVQEWWELSRTHPVLYLFYEDMKENPKREIQKILEFVGRSLPEETVDFVVQHTSFKEMKKNPMTNYTTVPQEFMDHSISPFMRKGMAGDWKTTFTVAQNERFDADYAEKMAGCSLSFRSEL
B9: Mgst1 unactivated (Rattus norvegicus, UniProt P08011); chain ADLKQLMDNEVLMAFTSYATIILAKMMFLSSATAFQRLTNKVFANPEDCAGFGKGENAKKFLRTDEKVERVRRAHLNDLENIVPFLGIGLLYSLSGPDLSTALIHFRIFVGARIYHTIAYLTPLPQPNRGLAFFVGYGVTLSMAYRLLRSRLYL

With `MauG (Paracoccus denitrificans, UniProt Q51658)` the kcat was 0.24 ± 0.01 s⁻¹ (O=C1O[C@H]([C@@H](O)CO)C(O)=C1O; pH 7.5, 25 °C, together with: H2O2 100 µM).
The kcat of `protein (Streptomyces toyocaensis, UniProt Q8KLK7)` is reported as 0.15 ± 0.02 s⁻¹ (CC(C)(COP(=O)(O)OP(=O)(O)OC[C@H]1O[C@@H](n2cnc3c(N)ncnc32)[C@H](O)[C@@H]1OP(=O)(O)O)[C@@H](O)C(=O)NCCC(=O)NCCSC(=O)Cc1cc(O)cc(O)c1; pH 7.5, 24 °C, together with: O2).
`B1 (ycjS)` has a kcat of 0.4 ± 0.01 s⁻¹ (CO[C@@H]1O[C@H](CO)[C@@H](O)[C@H](O)[C@H]1O; pH 8, 30 °C, together with: NAD+ 2.0 mM).
`B2 (enzyme)` has a kcat of 9.87 s⁻¹ (NC(=O)c1ccc[n+]([C@@H]2O[C@H](COP(=O)(O)OP(=O)(O)OC[C@H]3O[C@@H](n4cnc5c(N)ncnc54)[C@H](OP(=O)(O)O)[C@@H]3O)[C@@H](O)[C@H]2O)c1; pH 8.8, 23 °C, cofactor varied).
For `Plasma amine oxidase (Bos taurus, UniProt Q29437)`, the kcat was 0.0244 ± 0.0032 s⁻¹ (NCCOc1ccc2cc(CN)ccc2c1; pH 7.2, 30 °C).
The kcat of `B3 (enzyme K299V)` is reported as 0.17 ± 0.002 s⁻¹ (CC(C)(COP(=O)(O)OP(=O)(O)OC[C@H]1O[C@@H](n2cnc3c(N)ncnc32)[C@H](O)[C@@H]1OP(=O)(O)O)[C@@H](O)C(=O)NCCC(=O)NCCSC(=O)CCC(=O)O; pH 7.5, 37 °C).
`B4 (TcC)` gave a kcat of 30 ± 1 s⁻¹ (Nc1nc2nc[nH]c2c(=O)[nH]1; pH 8.3, 37 °C, apparent, together with: PRPP 1 mM, MgCl2 12 mM).
The kcat of `LodA (Marinomonas mediterranea, UniProt F2JXJ3)` is reported as 0.22 ± 0.04 s⁻¹ (NCCCC[C@H](N)C(=O)O; pH 7.5, 25 °C, together with: O2).
With `HARS1 (Homo sapiens, UniProt P12081)` the kcat was 4.1 ± 0.4 s⁻¹ (N[C@@H](Cc1c[nH]cn1)C(=O)O; pH 7.5, 37 °C, KCl 150 mM, together with: tRNA(His)).
`B5 (Paox H64Q)` has a kcat of 0.2 ± 0.01 s⁻¹ (c1ccc(CNCCCCNCc2ccccc2)cc1; pH 8.6, 30 °C).
With `B6 (SUOX P168A)` the kcat was 50 ± 3 s⁻¹ (O=S(O)O; pH 8, 25 °C, together with: oxidized cyt c 400 µM).
`B7 (protein)` gave a kcat of 0.06 ± 0.004 s⁻¹ (O[C@@H]1CCCc2ccccc21; pH 7.4, phosphate 400 mM, NADPH 250 µM printed, together with: NADP+, reverse reaction).
`dxs (Escherichia coli, UniProt P77488)` gave a kcat of 0.026 ± 0.001 s⁻¹ (O=C(O)C(=O)CO; pH 6.8, 37 °C).
`UGT88A1 (Arabidopsis thaliana, UniProt Q9LK73)` has a kcat of 0.16 s⁻¹ (O=c1c(O)c(-c2ccc(O)c(O)c2)oc2cc(O)cc(O)c12; pH 6.8, 37 °C, together with: UDP-glucose).
For `α-amino ester hydrolase (Xanthomonas campestris, UniProt Q8P8K4)`, the kcat was 200 s⁻¹ (CC1=C(C(=O)O)N2C(=O)[C@@H](NC(=O)[C@H](N)c3ccccc3)[C@H]2SC1; pH 7, 25 °C, phosphate 100 mM).
`protein (Zea mays, UniProt A0A2H4PMI3)` has a kcat of 1.9 ± 0.2 s⁻¹ (O=CCCCC(=O)O; pH 7.5, 30 °C, substrate inhibition, together with: NAD+ 3.0 mM).
`B8 (SULT1A1 I89A)` has a kcat of 5.8 s⁻¹ (Oc1ccc2ccccc2c1; pH 7.2, 25 °C, together with: PAPS 0.020–0.50 µM).
With `B9 (Mgst1 unactivated)` the kcat was 0.0099 ± 0.0005 s⁻¹ (NC(=O)c1ccc(Cl)c([N+](=O)[O-])c1; pH 6.5, 5 °C, potassium phosphate 0.1 M, unactivated enzyme, together with: GSH 5 mM).
